Results collected from several papers.
Lines come from different studies, so protocols differ. ± marks the error that the study gave.

Structure (SMILES) = COc1ccc(CCNc2nc(-c3ccccc3)cc(C(F)(F)F)n2)cc1OC; target = Secretin receptor (SCTR, Homo sapiens, UniProt P47872); assay = increase of tracer binding, TR-FRET; test system = HEK293 membranes; setting = added: Fluo-Sec 6 nM; endpoint = Emax; value = 113 ± 1.5%
Structure (SMILES) = CC(=O)NCC(=O)N[C@@H](CC(=O)O)C(=O)N[C@@H](Cc1ccc(O)cc1)C(=O)N[C@@H](CO)C(=O)N[C@@H](Cc1c[nH]cn1)C(=O)N[C@H]1CSSC[C@@H](C(=O)N[C@H](C(=O)N[C@@H](Cc2ccc(O)cc2)C(=O)N2CCC[C@H]2C(=O)N[C@@H](CC(=O)O)C(=O)N2CCC[C@H]2C(=O)N[C@@H](CCC(=O)O)C(=O)NCC(=O)NCC(=O)NCC(N)=O)[C@@H](C)O)NC(=O)[C@H](CCCCN)NC(=O)[C@H](Cc2c[nH]c3ccccc23)NC(=O)[C@H](Cc2c[nH]c3ccccc23)NC(=O)[C@@H]2CCCN2C(=O)[C@H](Cc2ccc(O)cc2)NC(=O)[C@H](Cc2ccc(O)cc2)NC(=O)[C@H](CCCNC(=N)N)NC(=O)[C@H](CC(C)C)NC(=O)[C@@H]2CCCN2C(=O)[C@H](CO)NC1=O; target = Angiotensin-converting enzyme (Mus musculus, UniProt P09470); assay = enzyme activity; test system = mouse Lin- cell lysate; setting = 4 h; endpoint = maximum inhibition; value = 7 ± 1%
Structure (SMILES) = CCOC(=O)C(CS)NCCNC(CS)C(=O)OCC (centres unmarked); target = Carbamate kinase (Giardia intestinalis, UniProt A8BB85); assay = enzyme activity, inhibitor, luminescence, ATP detection; test system = Giardia lamblia; endpoint = maximal inhibition; value = 79.4%
Structure (SMILES) = O=C(Nc1ccc2ncccc2c1)c1ccc(-c2ccc(Cl)cc2)o1; target = Nuclear receptor subfamily 4 group A member 2, ligand binding domain (Homo sapiens, UniProt P43354); assay = reporter gene, agonist, Gal4-Nurr1 hybrid reporter; test system = HEK-293T; setting = 3 µM, crude library product; scale = relative to: vehicle (0.1% DMSO); endpoint = activation; value = ≤ 1.5 fold
Structure (SMILES) = Cc1cn(C2CC(O)C(COP(=O)(O)OP(=O)(O)C(Br)P(=O)(O)O)O2)c(=O)[nH]c1=O (mixture of isomers); target = DNA polymerase beta (POLB, Homo sapiens, UniProt P06746, I260M); assay = nucleotide incorporation rate, substrate, single-turnover kinetics; test system = single-nucleotide gapped DNA; setting = 37 °C, I260M, correct incorporation, added: dTTP opposite template A; endpoint = kpol; value = 1.3 ± 0.1 s⁻¹
Structure (SMILES) = Nc1ncnc2c1ncn2[C@@H]1O[C@H](CSCC[C@H](N)C(=O)O)[C@@H](O)[C@H]1O; target = 5-methylthioadenosine/S-adenosylhomocysteine deaminase (mtaD, Thermotoga maritima, UniProt Q9X034); assay = deaminase activity, substrate; endpoint = Km; value = 106 ± 18 µM
Structure (SMILES) = Cc1cc(=O)oc2cc(NC(=O)CCCCCCC(=O)NO)ccc12; target = Histone deacetylase 8 (HDAC8, Homo sapiens, UniProt Q9BY41); assay = ITC in four buffers; setting = concentration not given, pH 7.5; endpoint = protons released on binding; value = 0 ± 0.01 protons per ligand
Structure (SMILES) = Nc1nc2c(ncn2[C@H]2C[C@H](O)[C@@H](COP(=O)(O)OP(=O)(O)[C@H](Cl)P(=O)(O)O)O2)c(=O)[nH]1; target = DNA polymerase beta (POLB, Homo sapiens, UniProt P06746); assay = substrate, quench-flow kinetics; setting = pH 8.0, 37 °C, misincorporation opposite T in gapped DNA; endpoint = kpol; value = 0.26 ± 0.01 s⁻¹
Structure (SMILES) = COc1ccc(CNc2nc3c(c(=O)[nH]2)[n+](C)cn3C2OC(COP(=O)(O)OP(=O)([O-])OP(=O)(O)OCC3OC(n4cnc5c(=O)[nH]c(N)nc54)C(O)C3O)C(O)C2O)cc1 (centres unmarked); target = Eukaryotic translation initiation factor 4E (Eif4e, Mus musculus, UniProt P63073); assay = differential scanning fluorimetry; scale = relative to: m7GpppG; endpoint = relative affinity; value = ~2.5
Structure (SMILES) = COc1cc(C(=O)NC2CCC(N3CCN(CC4CCC5(CCCC5)C4)CC3)CC2)c(F)cc1Nc1ncc2c(n1)N(C1CCCC1(F)F)CC(F)(F)C(=O)N2C (centres unmarked); target = Tyrosine-protein kinase JAK3 (JAK3, Homo sapiens, UniProt P52333); assay = cell-free assay, TR-FRET; setting = 10 µM; endpoint = inhibition; value = 6.51%
Structure (SMILES) = CN1CCN(CC(=O)N2N=C3/C(=C/c4ccccc4)CCCC3C2c2ccccc2)CC1 (mixture of isomers); target = Polyunsaturated fatty acid lipoxygenase ALOX12 (ALOX12, Homo sapiens, UniProt P18054); assay = activator; setting = 10 µM, added: arachidonic acid 10 µM; scale = relative to: activator 0 µM; endpoint = enzyme activity; value = 75%
Structure (SMILES) = CC1(C)Cc2sc(NC(=O)Cc3ccc(S(N)(=O)=O)cc3)c(C#N)c2CN1CC1CCCCC1; target = Genome polyprotein, NS3 (Dengue virus type 2, UniProt P14340); assay = isothermal titration calorimetry; test system = Zika virus; setting = concentration not given; endpoint = binding; value = no binding
Structure (SMILES) = CN(C(=O)CCc1nc(CN2CCN(C(=O)c3ccc(Br)o3)CC2)no1)C1CCCCC1; target = Potassium voltage-gated channel subfamily KQT member 2 (KCNQ2, Homo sapiens, UniProt O43526); assay = potassium current, activator, whole-cell patch clamp; test system = CHO, stable; setting = 20 µM; scale = relative to: current before compound; endpoint = current fold increase; value = 1.22 ± 0.11
Structure (SMILES) = CC(C=O)Cc1ccc(C(C)(C)C)cc1 (centres unmarked); target = Olfactory receptor 10S1 (OR10S1, Homo sapiens, UniProt Q8NGN2); assay = GFP reporter, agonist; test system = yeast olfactory receptor sensor; scale = relative to: DMSO; endpoint = fold increase; value = > 2 fold

Some of these lines once more:
Structure (SMILES) = CCOC(=O)C(CS)NCCNC(CS)C(=O)OCC (centres unmarked); target = Carbamate kinase (Giardia intestinalis, UniProt A8BB85); assay = enzyme activity, inhibitor, luminescence, ATP detection; test system = Giardia lamblia; endpoint = maximal inhibition; value = 79.4%
